Measurements of several laboratories.
Each line is one published result; not all experiments were run side by side. “And” joins repeats or separate records; there may be more than shown. ± gives the spread as reported. In brackets after ≈: the same amount, converted by molar mass.

Structure (SMILES)	target or system	assay	system	setting	scale	measurement	result
O=C(c1ccccc1)N1C(c2ccc(OCC3CCN(CCCF)C3)cc2)c2ccc(O)cc2CC12CC2 (stereo not shown)	–	–	C57BL/6J mouse, plasma	oral, 25 mg/kg	–	AUC(0-t)	2480 ng·h/mL and 3430 ng·h/mL
CNc1cc(N)c(C(N)=O)cn1	–	–	Han Wistar rats, male, plasma	oral, 30 mg/kg, 1.00 h	–	concentration at time	30.7 µM
COc1ccccc1CN1CC(C(=O)NCCN(C)CCc2ccccc2)CCC1=O (stereo not shown)	Trypanosoma cruzi	reporter mRNA translation, inhibitor, item: capped polyadenylated Renilla luciferase mRNA	cell-free extract	concentration not given	reference: control RNA	relative translation	120%
C/C(N)=N/C(=N\S(=O)(=O)c1ccc(C(F)(F)F)cc1)N1C[C@H](c2ccccc2)C(c2ccc(Cl)cc2)=N1	–	–	C57BL/6 mouse, muscle	intravenous, 10 mg/kg	–	AUC(0-inf)	21500 ng·h/mL
O=C(O)CN1CCN(Cc2cccc(C(=O)O)n2)CCN(CP(=O)(O)O)CC1	–	potentiometric titration	–	second phosphonate deprotonation	–	log Ka	7.01
CC(C)(C)n1ncc2c(=O)n(Cc3cccc(F)c3)c(NCc3ccc(F)cn3)nc21	–	–	C57BL/6J mice, male, brain	oral, 10 mg/kg, 1 h	–	brain concentration	26.7 ± 18.3 ng/g
Cc1cccc(-c2cccc(C)n2)n1.Cc1cccc(-c2cccc(C)n2)n1.F[P-](F)(F)(F)(F)F.F[P-](F)(F)(F)(F)F.[Ru+2].c1cc2ccc3ccc(-c4nc5c6cccnc6c6ncccc6c5[nH]4)c4ccc(c1)c2c34	–	–	aerated acetonitrile	298 K	reference: Ru(bpy)3(PF6)2	singlet oxygen quantum yield	0
[O-]c1ccnc(-c2cc([O-])ccn2)c1.[Ru+2].c1ccc(-c2ccnc3c2ccc2c(-c4ccccc4)ccnc23)cc1.c1ccc(-c2ccnc3c2ccc2c(-c4ccccc4)ccnc23)cc1	–	–	acetonitrile	basic deprotonated form	–	singlet oxygen quantum yield	0.19
CC(C)Cc1ccc(C(C)C(=O)N[C@@H](CCCCNC(=O)CCOCCOCCOCCOCCOCCOCCNC(=O)CN2CCN(CC(=O)[O-])CCN(CC(=O)[O-])CCN(CC(=O)[O-])CC2)C(=O)Nc2cccc3c(C(=O)NCC(=O)N4CC(F)(F)C[C@H]4C#N)ccnc23)cc1.[177Lu+3] (stereo partly shown)	–	–	mouse, U-87 MG tumour xenograft, salivary gland	1 h	–	tissue uptake	17.4 ± 0.88 %ID/g
CN1CCC[C@@H]1C(=O)N[C@@H](Cc1ccc(-c2ccccc2)cc1)B(O)O	–	–	NODscidIL2Rγnull mice, whole blood	oral, 50 mg/kg, 4 h, mean	–	blood concentration	440 ng/mL
C#CCOCCOCCOCCOCCn1cc(C(ONC(=O)/C=C/C(C)=C/C2(C)Oc3cc(N(C)C)ccc3C2=O)(c2ccc(C)cc2)c2ccc(C)cc2)nn1 (stereo not shown)	–	HPLC	aqueous buffer, 20% acetonitrile	concentration not given, 193 min, pH 3	reference: initial prodrug amount	release from prodrug hydrolysis	52.2%
C=CC(=O)N1CCCC(n2c(=O)c3ncccc3n(Cc3ccc(Oc4ccccc4)cc3)c2=O)C1 (stereo not shown)	–	–	male BALB/c mouse, plasma	oral, 200 mg/kg, 6 h	–	concentration	4740 ng/mL
[11CH3]N1CCC(NC(=O)c2cc(-c3c(O)cc(O)cc3Oc3ccc([N+](=O)[O-])cc3)on2)CC1	–	–	Wistar rat, female, healthy, lungs	intravenous, 18.5 MBq, 10 min	–	SUV	1.4 ± 0.1
C=CC(=O)Nc1cccc(Cn2ncc3cnc(Nc4cnn(CCOC)c4)nc32)c1	–	–	human hepatocytes	–	–	scaled intrinsic clearance	57.6 mL/min/kg
O=c1[nH]c2ccccc2c(=O)n1O	–	shake flask	aqueous buffer	pH 7.4	–	logD	0.05
CN1CCC[C@]1(C)/C=C/S(=O)(=O)NC(=O)Nc1c2c(cc3c1CCC3)CC=C2	–	–	human, plasma	oral, 50 mg twice daily of parent drug, day 14, metabolite of dosed drug	–	Cmax at first steady-state dose	27200 ng/mL
Cc1nn(-c2nc3c(F)cc(F)cc3s2)c(O)c1C(c1ccc(C(F)(F)F)cc1)c1c(C)nn(-c2nc3c(F)cc(F)cc3s2)c1O	–	–	ICR mouse	intravenous, 5 mg/kg, 8.00 h	–	plasma concentration	782 ng/mL and 3640 ng/mL and 1130 ng/mL and 1120 ng/mL
COCC1CN(C2CCN(c3cc(OC)c(Nc4ncc(Br)c(Nc5ccc6c(c5P(C)(C)=O)OCCO6)n4)cc3C)CC2)C1	–	–	EGFR-mutant NSCLC patients, plasma	oral, 90 mg multiple doses, geometric mean	–	Cmax at steady state	1230 ng/mL
N=C(N)NCCC[C@@H]1NC(=O)[C@@H](NC(=O)CCCCCNC(=O)c2ccc3c(c2)C(=O)OC32c3ccc(O)cc3Oc3cc(O)ccc32)CSSC[C@@H](C(N)=O)NC(=O)[C@H](CC(=O)O)NC(=O)[C@@H]2CCCN2C(=O)CNC(=O)[C@H](CCCCN)NC(=O)[C@H](CC(=O)O)NC(=O)CNC1=O	–	ex vivo tumour dipping, immunofluorescence	human peritoneal metastasis explants	10 µM, 90 min, 37 °C	–	tissue penetration depth	> 30 mm
Cc1c(Cc2ccc(Cl)c(O[C@@H](C)C(=O)O)c2)c2ccc(C(=O)N[C@@H](C)c3ccc(C(C)(C)C)cc3)cc2n1CC1CC1	–	–	mouse liver microsomes	1 µM, added: microsomes 1 mg/mL	–	half-life	> 1 h
CC(=O)N([O-])CCCCCNC(=O)CCC(=O)N([O-])CCCCCNC(=O)CCC(=O)N([O-])CCCCCN.[89Zr+4]	–	–	mouse, lung	24 h	–	tracer uptake	0.04 %ID/g
C=CC(=O)Nc1cc(Nc2nccc(-c3c[nH]c4ccccc34)n2)c(OC)cc1N(C)CCN(C)C	–	storage stability	human dried blood spot	30 d, on ice, LQC level	–	recovery	54.4%
CNc1cc(C)c(C(N)=O)cn1	–	–	Han Wistar rats, male, plasma	oral, 30 mg/kg, 24.0 h	–	concentration at time	0.0252 µM

Structure (SMILES)	target or system	assay	system	setting	scale	measurement	result
O=C(Nc1cnccc1-c1ccc([18F])cc1)c1ccnc(NC(=O)C2CC2)c1	–	ex vivo gamma counting	GSK-3β transgenic mice, early-stage, bladder	intravenous, 120 min, mean, no P-gp inhibitor	–	SUV	1.36
CC(=O)N[C@@H](CCCCN)C(=O)NCCCCCC(=O)N[C@H](C(=O)N[C@@H](CO)C(=O)N[C@@H](Cc1ccccc1)C(=O)N[C@]1(C)CCCCCCC=CCCC[C@@](C)(C(=O)N[C@@H](CCC(=O)O)C(=O)N[C@@H](CC(N)=O)C(=O)N[C@@H](Cc2ccccc2)C(N)=O)NC(=O)[C@H](CC(C)C)NC(=O)[C@H](CC(C)C)NC(=O)[C@H](C)NC(=O)[C@H](Cc2c[nH]c3ccccc23)NC(=O)[C@H](Cc2ccc(O)cc2)NC(=O)[C@H](CCC(=O)O)NC1=O)[C@@H](C)O	–	RP-HPLC C12	–	35 min gradient 5–95% acetonitrile	–	retention time	21.8 min
[123I]c1ccc2nc(-c3ccc(-n4ccnn4)nc3)cn2c1	–	–	male Wistar rat, stomach	intravenous, 4 MBq, 1 h	–	tracer uptake	0.866 %ID/g
CCCCN1C(=O)c2cccc3c(NCCCCCCCCN4CCOCC4)ccc(c23)C1=O	–	–	dichloromethane	–	–	fluorescence lifetime	10.5 ns
Cc1c(Cc2ccc(Cl)c(O[C@@H](C)C(=O)O)c2)c2ccc(C(=O)N[C@@H](C)c3ccc(C(C)(C)C)cc3)cc2n1C	–	–	mouse liver microsomes	1 µM, added: microsomes 1 mg/mL	–	half-life	0.7 h
CCCCCCCCCCCCCCCCOP(=O)([O-])OCC[N+](C)(C)C	Trypanosoma cruzi	reporter mRNA translation, inhibitor, item: capped polyadenylated Renilla luciferase mRNA	cell-free extract	concentration not given	reference: control RNA	relative translation	127%
O=S1(=O)CC2CCCCC2CS1 (stereo not shown)	–	phase solubility, NMR	water	25 °C, added: hydroxypropyl-β-cyclodextrin 280 mM	–	solubility	29.5 mM (≈ 6090 µg/mL)
C=C(NC(=O)c1csc(-c2nc3c(cc2O)-c2nc(cs2)C(=O)NC(C(C)O)C(=O)NC(=C(C)OC)c2nc(cs2)C(=O)NC2c4nc(cs4)C(=O)NC(COC(=O)c4c5c6c(cccc6n4O)COC(=O)C(OC4CC(C)(O)C(N(C)C)C(C)O4)C2OC5)c2nc-3cs2)n1)C(N)=O (stereo not shown)	–	–	Sprague-Dawley rat, both sexes, plasma	intravenous infusion, 18 mg/kg single dose	–	MRT(0-last)	2.1 h
CN1CCCNC(=O)c2cccc(c2)C(=O)NCCCN(C)CCCNc2cccc3c2C(=O)c2cccc(c2C3=O)NCCC1	–	–	mouse xenograft model	dose not given, day 8	–	body weight	25 g and 28 g and 26 g
C=CC(=O)Nc1cc(Nc2nccc(-c3cn(C)c4ccccc34)n2)c(OC)cc1N(C)CCNC	–	storage stability	human plasma	2 h, on ice, LLOQ level	–	recovery	102%
CC(C)C[C@H](NC(=O)[C@H](CCCCN)NC(=O)C1CCCC=CCCC(NC(=O)[C@H](CCCCN)NC(=O)[C@@H](N)CC(C)C)C(=O)N[C@@H](CCCCN)C(=O)NC2CCC=CCCCC(NC(=O)[C@H](CCCCN)NC(=O)CNC(=O)[C@H]3CCCN3C(=O)[C@H](CCCCN)NC2=O)C(=O)N[C@@H](CCCCN)C(=O)N1)C(N)=O (stereo partly shown)	–	RP-HPLC C18	–	hydrophobicity	–	retention time	14.2 min
CC(C)(O)c1ncc([S@](N)(=O)=NC(=O)Nc2c3c(cc4c2CCC4)CCC3)s1	–	item: musculoskeletal, connective tissue	healthy human	oral, 100 mg, 14 days, SDD formulation, once daily	–	subjects with TEAEs	17%
CC[C@H](C)[C@H](NC(=O)[C@H](CCCCN)NC(C)=O)C(=O)N[C@@H](C)C(=O)N[C@@H](C)C(=O)N[C@@H](CC(C)C)C(=O)N[C@@H](CCCCN)C(=O)N[C@@H](CCC(=O)O)C(=O)N[C@@H](CCCCN)C(=O)N[C@H](C(=O)N[C@@H](C)C(=O)N[C@@H](C)C(=O)N[C@@H](CC(C)C)C(=O)N[C@@H](CCCCN)C(=O)N[C@@H](CCC(=O)O)C(=O)N[C@@H](CCCCN)C(=O)N[C@H](C(=O)N[C@H]1CSCc2ccccc2CSC[C@@H](C(=O)NCC(=O)N[C@@H](Cc2c[nH]c3ccccc23)C(N)=O)NC(=O)[C@H](CCCCN)NC(=O)[C@H](CC(C)C)NC(=O)[C@H](C)NC1=O)[C@@H](C)CC)[C@@H](C)CC	–	tryptophan fluorescence titration	DOPC/DOPE/cholesterol 2:1:1 liposomes in PBS	–	–	ΔG of membrane partitioning	-6.75 kcal/mol
O=C(O)CN1CCN(CC(=O)O)CCN(CC(O)CN(CC(O)CN2CCN(CC(=O)O)CCN(CC(=O)O)CCN(CC(=O)O)CC2)C[C@H](O)[C@@H](O)[C@H](O)[C@H](O)CO)CCN(CC(=O)O)CC1 (stereo partly shown)	–	pH-potentiometry	0.15 M NaCl	25 °C	–	log K CaL	12.9
CN(O)C(=O)CCC(=O)NCCCN(CCCCN(CCCNC(=O)CCC(=O)N(C)O)C(=O)CCC(=O)N(C)O)C(=O)CCC(=O)N(C)O.[89Zr]	–	–	mouse, fat	24 h	–	tracer uptake	0.01 %ID/g
O=C([O-])CN1CCN(CC(=O)[O-])CCN(C(CO)C(O)CO)CCN(CC(=O)[O-])CC1.[Dy+3] (stereo not shown)	–	ICP-MS	cynomolgus monkey	dose not given, 5 d, mass balance group	reference: dose	cumulative urinary excretion	98.9%
CN(C)S(=O)(=O)c1ccc(S(=O)(=O)N2CCC(n3c(=O)[nH]c4ccccc43)CC2)cc1	–	–	mouse	dose not given, day 1	reference: day 0	relative body weight	96% and 94% and 97% and 92% and 95%
CC(C)n1ncc2c(C(=O)NCC(C)(C)N)cc(C3CC3)nc21	–	metabolic stability	mouse, liver microsomes	–	–	microsomal CLint	< 9.6 µL/min/mg
COc1ccnc(C(=O)N[C@H]2COC(=O)[C@H](Cc3ccccc3)[C@@H](OC(=O)C(C)C)[C@H](C)OC2=O)c1O	–	soil adsorption	soil	pH 6.9, organic carbon 0.8 %	–	KFoc	27500 mL/g
Cc1cccc(O[C@H]2CCC[C@@H](C(C)CNCc3ccncc3)C2)c1 (relative stereo)	–	–	C57BL/6 mouse adult female	25 mg/kg, one month, toxicity study	–	body weight	24.2 g
O=C(Nc1cnccc1-c1ccc([18F])nc1)c1ccnc(NC(=O)C2CC2)c1	–	–	FVB/NJ mouse, both sexes, liver	intravenous, 25 min, added: tariquidar 15 mg/kg iv	–	SUV	8.86
CN1CCC[C@]1(C)/C=C/S(=O)(=O)NC(=O)Nc1c2c(cc3c1CC(O)C3)CCC2 (stereo partly shown)	–	–	human, plasma	oral, 100 mg twice daily of parent drug, day 14, metabolite of dosed drug	–	Cmax at second steady-state dose	10100 ng/mL
CC(C)=CCC1=C([O-])C(=O)c2ccccc2C1=O.CC(C)=CCC1=C([O-])C(=O)c2ccccc2C1=O.[Zn+2].c1ccc(-c2ccnc3c2ccc2c(-c4ccccc4)ccnc23)cc1	–	cyclic voltammetry	CH2Cl2, Bu4NPF6	0.1 mM	reference: Ag/AgCl sat. KOH	Epa1 anodic peak potential	0.84 V

For quick reference, copied from above:
Structure (SMILES)	target or system	assay	system	setting	scale	measurement	result
C=CC(=O)Nc1cccc(Cn2ncc3cnc(Nc4cnn(CCOC)c4)nc32)c1	–	–	human hepatocytes	–	–	scaled intrinsic clearance	57.6 mL/min/kg
O=c1[nH]c2ccccc2c(=O)n1O	–	shake flask	aqueous buffer	pH 7.4	–	logD	0.05
CN1CCC[C@]1(C)/C=C/S(=O)(=O)NC(=O)Nc1c2c(cc3c1CCC3)CC=C2	–	–	human, plasma	oral, 50 mg twice daily of parent drug, day 14, metabolite of dosed drug	–	Cmax at first steady-state dose	27200 ng/mL
Cc1nn(-c2nc3c(F)cc(F)cc3s2)c(O)c1C(c1ccc(C(F)(F)F)cc1)c1c(C)nn(-c2nc3c(F)cc(F)cc3s2)c1O	–	–	ICR mouse	intravenous, 5 mg/kg, 8.00 h	–	plasma concentration	782 ng/mL and 3640 ng/mL and 1130 ng/mL and 1120 ng/mL
COCC1CN(C2CCN(c3cc(OC)c(Nc4ncc(Br)c(Nc5ccc6c(c5P(C)(C)=O)OCCO6)n4)cc3C)CC2)C1	–	–	EGFR-mutant NSCLC patients, plasma	oral, 90 mg multiple doses, geometric mean	–	Cmax at steady state	1230 ng/mL
N=C(N)NCCC[C@@H]1NC(=O)[C@@H](NC(=O)CCCCCNC(=O)c2ccc3c(c2)C(=O)OC32c3ccc(O)cc3Oc3cc(O)ccc32)CSSC[C@@H](C(N)=O)NC(=O)[C@H](CC(=O)O)NC(=O)[C@@H]2CCCN2C(=O)CNC(=O)[C@H](CCCCN)NC(=O)[C@H](CC(=O)O)NC(=O)CNC1=O	–	ex vivo tumour dipping, immunofluorescence	human peritoneal metastasis explants	10 µM, 90 min, 37 °C	–	tissue penetration depth	> 30 mm
Cc1c(Cc2ccc(Cl)c(O[C@@H](C)C(=O)O)c2)c2ccc(C(=O)N[C@@H](C)c3ccc(C(C)(C)C)cc3)cc2n1CC1CC1	–	–	mouse liver microsomes	1 µM, added: microsomes 1 mg/mL	–	half-life	> 1 h
